Measured values pooled from the literature.
Each numbered part is a random draw from the data of one study; scales do not carry over between parts.
Sequence of UniProt Q15418 (whole entry, looked up): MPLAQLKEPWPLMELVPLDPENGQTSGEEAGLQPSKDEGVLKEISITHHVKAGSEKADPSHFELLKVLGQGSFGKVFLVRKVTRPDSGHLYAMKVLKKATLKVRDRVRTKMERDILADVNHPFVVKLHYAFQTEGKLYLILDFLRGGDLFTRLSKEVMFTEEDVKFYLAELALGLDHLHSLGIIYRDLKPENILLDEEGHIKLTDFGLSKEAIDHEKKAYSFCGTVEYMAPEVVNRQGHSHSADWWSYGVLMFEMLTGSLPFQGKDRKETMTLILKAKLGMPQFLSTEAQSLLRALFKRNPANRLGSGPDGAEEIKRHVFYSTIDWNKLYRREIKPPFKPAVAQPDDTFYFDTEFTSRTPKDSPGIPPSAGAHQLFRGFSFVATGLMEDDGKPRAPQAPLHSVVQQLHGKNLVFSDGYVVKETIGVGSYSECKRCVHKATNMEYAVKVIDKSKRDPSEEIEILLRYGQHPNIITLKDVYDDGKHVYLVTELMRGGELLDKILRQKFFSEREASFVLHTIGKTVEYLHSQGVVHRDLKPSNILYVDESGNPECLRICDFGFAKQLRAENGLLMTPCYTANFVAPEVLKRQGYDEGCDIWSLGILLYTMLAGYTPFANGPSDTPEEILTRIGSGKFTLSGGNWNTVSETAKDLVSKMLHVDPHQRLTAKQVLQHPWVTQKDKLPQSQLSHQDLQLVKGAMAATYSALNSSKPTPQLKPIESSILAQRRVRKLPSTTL
Sequence of UniProt Q16512 (whole entry, looked up): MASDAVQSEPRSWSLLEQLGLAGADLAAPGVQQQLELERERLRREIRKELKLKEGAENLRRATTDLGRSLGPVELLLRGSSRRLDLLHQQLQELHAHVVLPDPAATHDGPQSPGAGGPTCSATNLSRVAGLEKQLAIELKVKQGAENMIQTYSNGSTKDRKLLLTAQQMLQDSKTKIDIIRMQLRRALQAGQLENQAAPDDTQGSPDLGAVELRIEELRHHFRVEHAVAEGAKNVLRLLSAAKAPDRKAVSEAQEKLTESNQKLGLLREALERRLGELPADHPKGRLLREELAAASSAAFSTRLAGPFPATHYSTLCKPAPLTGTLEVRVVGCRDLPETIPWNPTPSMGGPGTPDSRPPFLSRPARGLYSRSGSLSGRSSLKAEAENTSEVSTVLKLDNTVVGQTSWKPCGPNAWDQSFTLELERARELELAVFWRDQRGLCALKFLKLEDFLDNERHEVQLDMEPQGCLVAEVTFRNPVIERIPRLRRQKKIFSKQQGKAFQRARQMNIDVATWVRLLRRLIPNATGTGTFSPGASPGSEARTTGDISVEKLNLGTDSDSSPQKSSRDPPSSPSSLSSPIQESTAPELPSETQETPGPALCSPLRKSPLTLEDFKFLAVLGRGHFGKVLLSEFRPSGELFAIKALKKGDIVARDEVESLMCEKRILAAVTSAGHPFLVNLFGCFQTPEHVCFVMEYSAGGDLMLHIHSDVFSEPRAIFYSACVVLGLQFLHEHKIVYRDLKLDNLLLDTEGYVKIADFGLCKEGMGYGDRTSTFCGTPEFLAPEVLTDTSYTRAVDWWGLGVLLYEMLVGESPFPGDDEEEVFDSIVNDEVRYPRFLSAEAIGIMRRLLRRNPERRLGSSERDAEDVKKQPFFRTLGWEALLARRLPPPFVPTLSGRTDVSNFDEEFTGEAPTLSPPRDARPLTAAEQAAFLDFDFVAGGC
Sequence of UniProt Q56UN5 (whole entry, looked up): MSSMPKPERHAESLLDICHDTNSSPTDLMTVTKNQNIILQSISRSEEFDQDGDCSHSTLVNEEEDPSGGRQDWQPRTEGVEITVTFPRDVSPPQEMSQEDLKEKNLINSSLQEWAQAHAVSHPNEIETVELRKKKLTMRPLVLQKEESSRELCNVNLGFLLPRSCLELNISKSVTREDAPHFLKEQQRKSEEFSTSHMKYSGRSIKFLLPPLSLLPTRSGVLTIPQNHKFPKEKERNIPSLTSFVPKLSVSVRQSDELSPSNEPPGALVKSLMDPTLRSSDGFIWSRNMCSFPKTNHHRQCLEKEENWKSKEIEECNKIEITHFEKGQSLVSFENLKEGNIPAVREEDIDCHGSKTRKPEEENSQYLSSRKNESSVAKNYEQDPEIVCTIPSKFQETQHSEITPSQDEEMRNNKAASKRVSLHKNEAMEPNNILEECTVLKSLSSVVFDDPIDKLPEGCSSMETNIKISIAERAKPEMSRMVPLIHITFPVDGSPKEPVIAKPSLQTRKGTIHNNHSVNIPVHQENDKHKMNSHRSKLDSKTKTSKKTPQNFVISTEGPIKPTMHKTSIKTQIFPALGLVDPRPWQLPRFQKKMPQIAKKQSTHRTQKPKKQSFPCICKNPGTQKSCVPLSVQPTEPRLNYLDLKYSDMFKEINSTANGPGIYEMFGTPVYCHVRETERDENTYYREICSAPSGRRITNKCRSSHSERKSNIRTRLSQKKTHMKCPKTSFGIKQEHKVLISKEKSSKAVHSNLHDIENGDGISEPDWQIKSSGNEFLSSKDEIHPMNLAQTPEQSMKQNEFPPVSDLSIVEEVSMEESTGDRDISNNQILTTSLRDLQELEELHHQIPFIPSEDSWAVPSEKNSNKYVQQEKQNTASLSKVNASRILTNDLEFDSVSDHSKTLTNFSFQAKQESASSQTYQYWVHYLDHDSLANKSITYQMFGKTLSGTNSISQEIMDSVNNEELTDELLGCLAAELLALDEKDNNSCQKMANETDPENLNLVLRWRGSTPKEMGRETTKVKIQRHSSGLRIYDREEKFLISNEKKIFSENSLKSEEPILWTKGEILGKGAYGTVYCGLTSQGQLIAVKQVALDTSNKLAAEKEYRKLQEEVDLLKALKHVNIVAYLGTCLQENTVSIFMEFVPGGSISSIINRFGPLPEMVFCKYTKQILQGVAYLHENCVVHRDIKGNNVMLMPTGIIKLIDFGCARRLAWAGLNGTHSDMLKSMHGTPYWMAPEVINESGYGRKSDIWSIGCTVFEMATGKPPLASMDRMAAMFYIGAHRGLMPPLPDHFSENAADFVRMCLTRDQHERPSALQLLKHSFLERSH
Sequence of UniProt Q13882 (whole entry, looked up): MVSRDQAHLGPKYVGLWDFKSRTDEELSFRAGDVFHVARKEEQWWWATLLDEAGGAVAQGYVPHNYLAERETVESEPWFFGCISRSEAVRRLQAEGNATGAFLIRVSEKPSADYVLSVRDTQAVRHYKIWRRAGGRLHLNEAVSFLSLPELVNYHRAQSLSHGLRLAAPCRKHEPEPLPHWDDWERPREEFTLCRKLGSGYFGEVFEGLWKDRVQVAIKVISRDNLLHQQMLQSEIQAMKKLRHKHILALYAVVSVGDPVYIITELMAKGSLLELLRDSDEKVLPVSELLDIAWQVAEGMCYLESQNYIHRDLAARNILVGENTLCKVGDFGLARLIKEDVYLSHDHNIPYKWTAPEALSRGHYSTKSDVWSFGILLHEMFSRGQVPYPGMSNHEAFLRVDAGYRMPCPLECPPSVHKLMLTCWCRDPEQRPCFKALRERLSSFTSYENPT
Sequence of UniProt P46734 (whole entry, looked up): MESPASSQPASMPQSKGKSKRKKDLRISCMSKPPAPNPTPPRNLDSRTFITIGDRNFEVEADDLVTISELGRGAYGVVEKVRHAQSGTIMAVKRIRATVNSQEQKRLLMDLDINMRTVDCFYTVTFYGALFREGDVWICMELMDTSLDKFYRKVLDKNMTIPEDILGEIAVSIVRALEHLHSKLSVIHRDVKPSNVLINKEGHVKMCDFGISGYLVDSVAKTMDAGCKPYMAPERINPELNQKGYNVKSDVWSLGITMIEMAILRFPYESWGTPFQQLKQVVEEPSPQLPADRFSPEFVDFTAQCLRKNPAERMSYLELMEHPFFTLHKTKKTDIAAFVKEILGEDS

Set 1 — method: competition with immobilised ligand; concentration: 1 µM
SMILES: Cc1c(C(=O)O)cc(-c2ccc(C3CCNCC3)cc2)c2ccc(-c3ccc(C(F)(F)F)cc3)cc12
target | observed | remaining binding [%]
MAP2K3 (Homo sapiens, UniProt P46734) | binding | 100
Tyrosine-protein kinase ABL1, phosphorylated (ABL1, Homo sapiens, UniProt P00519, H396P) | binding | 99
Ribosomal protein S6 kinase alpha-1, N-terminal kinase domain (RPS6KA1, Homo sapiens, UniProt Q15418) | binding | 100
KIT (Homo sapiens, UniProt P10721, A829P) | binding | 98
NTRK2 (Homo sapiens, UniProt Q16620) | cell-free assay | 100
PIP5K1C (Homo sapiens, UniProt O60331) | binding | 98
BMX (Homo sapiens, UniProt P51813) | cell-free assay | 100
MAPK11 (Homo sapiens, UniProt Q15759) | binding | 100
MAP3K19 (Homo sapiens, UniProt Q56UN5) | binding | 100
CDK5 (Homo sapiens, UniProt Q00535) | binding | 100
PTK6 (Homo sapiens, UniProt Q13882) | binding | 100
NEK4 (Homo sapiens, UniProt P51957) | binding | 100
Ribosomal protein S6 kinase alpha-2, C-terminal kinase domain (RPS6KA2, Homo sapiens, UniProt Q15349) | binding | 100
Tyrosine-protein kinase ABL1, phosphorylated (ABL1, Homo sapiens, UniProt P00519, T315I) | binding | 100
PKN1 (Homo sapiens, UniProt Q16512) | binding | 100
CSNK1A1 (Homo sapiens, UniProt P48729) | cell-free assay | 81
Ribosomal protein S6 kinase alpha-1, C-terminal kinase domain (RPS6KA1, Homo sapiens, UniProt Q15418) | binding | 100
TTK (Homo sapiens, UniProt P33981) | binding | 100

Set 2 — cell line: 1205 Lu melanoma cells
SMILES | IC50 [µM]
Clc1ccccc1CNCC1CCC(CNCc2ccccc2Cl)CC1 (stereo not shown) | 11.4
CC(C)c1ccc2c(c1)CC[C@H]1[C@](C)(CN)CCC[C@]21C | 2.5
OCCOCCN1CCN(C(c2ccccc2)c2ccc(Cl)cc2)CC1 (stereo not shown) | 62.7

Set 3 — observed: enzyme activity; action: inhibitor; concentration: 0.5 µM; relative to: control
Target: Homeodomain-interacting protein kinase 3 (HIPK3, Homo sapiens, UniProt Q9H422)
Sequence of UniProt Q9H422 (whole entry, looked up): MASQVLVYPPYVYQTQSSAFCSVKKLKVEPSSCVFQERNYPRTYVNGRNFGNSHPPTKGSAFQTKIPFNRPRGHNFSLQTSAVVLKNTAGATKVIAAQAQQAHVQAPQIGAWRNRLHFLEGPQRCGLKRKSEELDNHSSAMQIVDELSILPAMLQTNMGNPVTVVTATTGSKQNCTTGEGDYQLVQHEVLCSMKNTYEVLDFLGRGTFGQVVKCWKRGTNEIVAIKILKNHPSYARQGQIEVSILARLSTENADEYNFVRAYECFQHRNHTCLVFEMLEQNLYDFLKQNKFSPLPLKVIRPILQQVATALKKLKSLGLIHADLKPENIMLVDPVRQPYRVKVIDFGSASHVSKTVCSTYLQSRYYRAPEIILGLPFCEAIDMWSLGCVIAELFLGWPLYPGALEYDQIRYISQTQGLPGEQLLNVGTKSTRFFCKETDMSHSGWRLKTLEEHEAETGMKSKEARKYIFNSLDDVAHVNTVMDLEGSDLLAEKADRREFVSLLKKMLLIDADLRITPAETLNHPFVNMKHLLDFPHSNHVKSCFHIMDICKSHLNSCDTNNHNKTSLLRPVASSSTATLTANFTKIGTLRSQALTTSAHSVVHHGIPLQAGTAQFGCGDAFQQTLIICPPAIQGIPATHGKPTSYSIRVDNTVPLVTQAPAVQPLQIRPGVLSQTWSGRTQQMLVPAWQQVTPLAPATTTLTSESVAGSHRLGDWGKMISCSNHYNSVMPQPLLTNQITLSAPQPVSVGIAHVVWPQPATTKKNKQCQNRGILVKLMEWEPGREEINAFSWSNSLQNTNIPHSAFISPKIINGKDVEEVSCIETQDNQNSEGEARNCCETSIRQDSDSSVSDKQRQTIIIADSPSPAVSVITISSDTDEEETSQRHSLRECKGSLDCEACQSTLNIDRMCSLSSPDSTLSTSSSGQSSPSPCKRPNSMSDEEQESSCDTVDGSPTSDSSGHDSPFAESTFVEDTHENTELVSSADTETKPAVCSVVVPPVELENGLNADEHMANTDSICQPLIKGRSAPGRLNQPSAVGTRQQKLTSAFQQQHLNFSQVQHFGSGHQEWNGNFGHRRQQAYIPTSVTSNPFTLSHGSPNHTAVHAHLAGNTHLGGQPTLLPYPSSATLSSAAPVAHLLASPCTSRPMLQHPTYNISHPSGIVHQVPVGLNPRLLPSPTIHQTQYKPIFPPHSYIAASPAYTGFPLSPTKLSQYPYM
SMILES | remaining activity [%]
Cn1nc2c3c(cccc31)C(=O)c1ccccc1-2 | 113
CCOc1nc(NC(=O)Cc2cc(OC)ccc2OC)cc(N)c1C#N | 113
N#Cc1c(NC(=O)c2cccc3ccccc23)sc2c1CCCC2 | 116
COc1cc2ncnc(Nc3cccc(Cl)c3)c2cc1OC | 98.9
O=C(Nc1cccc(Nc2nccc(Nc3cccc(C(F)(F)F)c3)n2)c1)C1CC1 | 104
CCN(CC)CCNC(=O)c1c(C)[nH]c(/C=C2\C(=O)Nc3ccc(F)cc32)c1C | 47.3
Cc1nc2cc3nc(-c4cccs4)cnc3cc2n1C | 101
Cc1cc2ncc(-c3ccccc3)nc2cc1C | 94.4
O=C(NC(NC(=S)Nc1ccc(F)c([N+](=O)[O-])c1)C(Cl)(Cl)Cl)C(c1ccccc1)c1ccccc1 (stereo not shown) | 105
O=C1C(Cl)=C(N2C(=O)CCC2=O)C(=O)c2ccccc21 | 112
CCN(CC)CCNC(=O)c1c(C)[nH]c(/C=C2\C(=O)Nc3ccc(Cl)cc32)c1C | 50.8
CCN(CC)C(=O)c1ccc(Nc2nc(OCC3CCCCC3)c3[nH]cnc3n2)cc1 | 96.4

Set 4 — cell line: HaCaT; concentration: 100 µM; time: 18 h
Compound | viability [%]
C[C@@H](O[C@H]1OCCN(Cc2n[nH]c(=O)[nH]2)[C@H]1c1ccc(F)cc1)c1cc(C(F)(F)F)cc(C(F)(F)F)c1 | 16
O=C(Nc1c(Cl)cncc1Cl)c1ccc(OC(F)F)c(OCC2CC2)c1 | 94
NC[C@@H]1O[C@H](O[C@H]2[C@@H](O)[C@H](O[C@@H]3[C@@H](O)[C@H](N)C[C@H](N)[C@H]3O[C@H]3O[C@H](CN)[C@@H](O)[C@H](O)[C@H]3N)O[C@@H]2CO)[C@H](N)[C@@H](O)[C@@H]1O | 124
CC(N)[C@]12C[C@H]3C[C@H](C[C@H](C3)C1)C2 (stereo partly shown) | 97.2
COc1c(C)c2c(c(O)c1C/C=C(\C)CCC(=O)OCCN1CCOCC1)C(=O)OC2 | 110
C[C@@H]1CC(=O)NN=C1c1ccc(NN=C(C#N)C#N)cc1 | 96.3
CCOC(=O)N[C@@H]1CC[C@@H]2[C@@H](C1)C[C@H]1C(=O)O[C@H](C)[C@H]1[C@H]2/C=C/c1ccc(-c2cccc(F)c2)cn1 | 98.3
CC(C)Oc1ccc2c(=O)c(-c3ccccc3)coc2c1 | 97.9
CC(C)c1cc2c(cc1S(=O)(=O)O)[C@@]1(C)CCC[C@@](C)(C(=O)O)[C@@H]1CC2 | 111
Cc1nc2c([nH]1)-c1ccccc1N(C(=O)c1ccc(NC(=O)c3ccccc3-c3ccccc3)cc1)CC2 | 50.6

A few entries again (set 1):
target | observed | remaining binding [%]
MAP3K19 (Homo sapiens, UniProt Q56UN5) | binding | 100
CDK5 (Homo sapiens, UniProt Q00535) | binding | 100
PTK6 (Homo sapiens, UniProt Q13882) | binding | 100
NEK4 (Homo sapiens, UniProt P51957) | binding | 100
Ribosomal protein S6 kinase alpha-2, C-terminal kinase domain (RPS6KA2, Homo sapiens, UniProt Q15349) | binding | 100
Tyrosine-protein kinase ABL1, phosphorylated (ABL1, Homo sapiens, UniProt P00519, T315I) | binding | 100
PKN1 (Homo sapiens, UniProt Q16512) | binding | 100
